{"data": "Results from different studies", "note": "Numbered parts are unrelated; each lists some results of a single study."}
{"data": "Study 1", "target": "Ras GTPase-activating protein-binding protein 1, RRM domain (G3BP1, Homo sapiens, UniProt Q13283)", "method": "RNA Bind-n-Seq", "form": "RNA", "matrix": "in vitro", "tested at": "1 µM", "setting": "whole 134-nt RNA, ends assumed", "together with": "150 mM KCl", "reference": "input library", "reading": "higher = stronger binding", "constant ends, left off below": "GGGAGUUCUACAGUCCGACGAUC … UGGAAUUCUCGGGUGUCAAGG", "sequence of UniProt Q13283 (whole entry, looked up)": "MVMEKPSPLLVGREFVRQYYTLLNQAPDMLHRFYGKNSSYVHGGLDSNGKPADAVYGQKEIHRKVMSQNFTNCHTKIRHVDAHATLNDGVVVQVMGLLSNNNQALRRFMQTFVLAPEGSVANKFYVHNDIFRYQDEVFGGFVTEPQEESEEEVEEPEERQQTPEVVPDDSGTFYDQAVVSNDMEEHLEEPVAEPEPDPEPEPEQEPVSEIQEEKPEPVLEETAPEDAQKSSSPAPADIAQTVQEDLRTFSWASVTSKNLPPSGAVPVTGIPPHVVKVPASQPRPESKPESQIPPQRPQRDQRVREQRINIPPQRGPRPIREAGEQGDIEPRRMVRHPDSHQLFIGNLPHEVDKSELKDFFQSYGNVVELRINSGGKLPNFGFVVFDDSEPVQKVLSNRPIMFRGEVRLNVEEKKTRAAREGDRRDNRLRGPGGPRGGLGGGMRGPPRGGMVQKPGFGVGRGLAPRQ"}
{"Sequence": "UCCUGUGCUACACAUCGUAUGUACCGAAUCGGGGUUUGGGGAAAAAAAGGGGUUUGGGGAAAGUAUUAUGUUACGCCGUUCGGAUCUGCA", "log2 enrichment": 0.926}
{"Sequence": "UUCGUUUUUUUCCUUAGUCUGAAGUUGCAGCCGGAGUGAAGAAGAGCGGACCGCUGCCCAGUGCUGAGGUAGAGUGUCGGAUCUGUUUUC", "log2 enrichment": -0.321}
{"Sequence": "UCAAGUCCUGUGCUACACAUCGUAUGUACCGAAUCGGCCCGGCCCGGCCCGGGGAAAGUAUUAUGUUACGCCGUUCGGAUCUGCACUUCC", "log2 enrichment": -0.898}
{"Sequence": "UCAAGUCCUGUGCUACACAUCGUAUGUACCGAAUCGGCCCGGGCCCGGGCCCGGAAAGUAUUAUGUUACGCCGUUCGGAUCUGCACUUCC", "log2 enrichment": -0.599}
{"Sequence": "CCUGUGCUACACAUCGUAUGUACCGAAUCGGGGUUUUUGGGGAAAAAGGGGUUUUUGGGGAAAGUAUUAUGUUACGCCGUUCGGAUCUGC", "log2 enrichment": 1.1}
{"Sequence": "UAACUUUAGAGGAGGAUCUGAUGGAUAUGGCAGUGGACGUGGAUUUGGGGAUGGCUAUAAUGGGUACGGAGGAGGACCUGGAGGUGGCAA", "log2 enrichment": -0.302}
{"Sequence": "CAAGUCCUGUGCUACACAUCGUAUGUACCGAAUCGGAAAGGAAAAAAAGGUUUGGAAAGUAUUAUGUUACGCCGUUCGGAUCUGCACUUC", "log2 enrichment": -0.23}
{"Sequence": "ACCAUGCAGGUGGGCAUCUUUGGGAAGUGGGGCAAGGGGGGGAUAGGGAGGGGGGUAACACUUUGGGAACAGAAAGUCCCAGGUCGUUUC", "log2 enrichment": -0.491}
{"Sequence": "CAAGUCCUGUGCUACACAUCGUAUGUACCGAAUCGGGUUUUGGUUUUGGUUUUGGAAAGUAUUAUGUUACGCCGUUCGGAUCUGCACUUC", "log2 enrichment": -0.348}
{"data": "Study 2", "target": "RING finger protein unkempt homolog, zinc fingers 1-6, SBP tag (UNK, Homo sapiens, UniProt Q9C0B0, residues 30-357)", "method": "RNA Bind-n-Seq", "form": "RNA", "matrix": "in vitro", "tested at": "100 nM", "setting": "RNA with constant flanks, vertebrate orthologous sites, ends assumed", "reference": "input RNA pool", "reading": "higher = stronger binding", "constant ends, left off below": "GGGAGUUCUACAGUCCGACGAUC … CAACAGAGGAUUGAGCAUCA", "sequence of UniProt Q9C0B0 (30-357, looked up)": "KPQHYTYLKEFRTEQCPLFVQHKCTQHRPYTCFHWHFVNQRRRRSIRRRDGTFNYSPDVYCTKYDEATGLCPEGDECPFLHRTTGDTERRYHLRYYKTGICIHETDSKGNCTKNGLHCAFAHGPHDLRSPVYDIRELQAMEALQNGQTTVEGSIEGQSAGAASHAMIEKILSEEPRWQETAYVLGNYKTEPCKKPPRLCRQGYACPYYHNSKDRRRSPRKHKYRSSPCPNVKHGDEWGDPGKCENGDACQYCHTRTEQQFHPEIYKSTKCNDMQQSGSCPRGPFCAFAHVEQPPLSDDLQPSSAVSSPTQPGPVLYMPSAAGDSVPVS"}
{"Sequence": "GCAUGCACAUGCCUCUGUCACCAAAAGCAAACACGGUCUUCAGAAUCUCCAAUAGCAUUUUUAGUAUCUCCCUCUUUCCCUUCUGUUUCCCUAAUGCUUUAAAUGAUUAGAAGUCCUGGA", "bound/input enrichment [ratio]": 3.55}
{"Sequence": "CUGCCCGUUUACCCCGUAAAAUAGGACUUUUUUAGAAUCCCAUCGCCACUUCUAAAAUCCUAGUAACACAUCAGCGAGAUAACUUUUAUUCGUUAUUUUACAAACCAAAUCGGUUUACUC", "bound/input enrichment [ratio]": 1.14}
{"Sequence": "UAUUGUACUUGGAUAAGUCAUCUUAGUUUUAAUCUAGUCACAGUGAUAAGUAGCCUGUGCUGGUAGAAUCGUUUACUCUUACCUUUUAAAUUAUCUUCUCUGUCUGAUACCUGAAACCAA", "bound/input enrichment [ratio]": 0.962}
{"Sequence": "UUGGGACUAGCUCUCCAAAUAGAAACAGUAGUAAAAAAAAUAAGCAAAAUGAUAUUUGUAUAGAAAAAACAGAAGUUAAAUCAUGCAAGGUAAAUGCUGCCAGUGUUCCAGGCUCUAAAG", "bound/input enrichment [ratio]": 3.29}
{"Sequence": "CCGAAAGGCCAAAUUCCCUCCUCCCUUCUACUGCUUCUACCAACUGGAAGCACAGAAAACUAGAAUUUCAUUAUUUUGUUUUGAAAAAAUAUAUGUUGAUUUCUUGUAACAUCCAAUAGG", "bound/input enrichment [ratio]": 0.588}
{"Sequence": "AUCUCGUGCCUCUCCCCACGGGGGGUGGGGGACGCUGAAUGACCCUCAGCUGUUCCAAUCCAGUGGGUUUUUUUGAUUUGUUUGUUUUUGUUUUUUUUUUUUUAUUAAAGAAAUUACUGU", "bound/input enrichment [ratio]": 0.484}
{"Sequence": "UCCUCUGAACCCCAUAUCUUCUGUUUCAUAGUGCAGAAGUAUUCUUUUCAAUUCUAUUAUUAGUGGACUUGUUUUAAUUUUAGGGAAACUUUCAGUACAGAUACUGUGAGCUUACAUGGA", "bound/input enrichment [ratio]": 2.33}
{"Sequence": "UACCCGGUACCCCCUAAAACAGAACUUUUUAGGAUUGUGUUGCCACCACUUUUUAAAACUUAGCAAUAUUAAUAUAACACAUGAAUGAAAUUAAUUUUGCUCAUUGUUUUGCGAACCAAA", "bound/input enrichment [ratio]": 0.336}
{"data": "Study 3", "target": "TAR DNA-binding protein 43, full length, His tag (TARDBP, Homo sapiens, UniProt Q13148, residues 1-414)", "method": "RNA Bind-n-Seq", "form": "RNA", "matrix": "in vitro", "tested at": "20 nM", "setting": "6-mer, flanks averaged, single round", "together with": "150 mM LiCl", "reference": "input library", "reading": "higher = stronger binding"}
{"Sequence": "GUCGGG", "6-mer enrichment (R)": 1.22}
{"Sequence": "ACAGUU", "6-mer enrichment (R)": 0.889}
{"Sequence": "ACCUGG", "6-mer enrichment (R)": 0.876}
{"Sequence": "UGAUCU", "6-mer enrichment (R)": 0.873}
{"Sequence": "CCUCAG", "6-mer enrichment (R)": 0.887}
{"Sequence": "GGGGAA", "6-mer enrichment (R)": 1.19}
{"Sequence": "UCCAUC", "6-mer enrichment (R)": 0.881}
{"Sequence": "GUACCU", "6-mer enrichment (R)": 0.899}
{"Sequence": "GAUGGC", "6-mer enrichment (R)": 1.01}
{"Sequence": "CAUUUG", "6-mer enrichment (R)": 1}
{"Sequence": "GAGAAU", "6-mer enrichment (R)": 1.03}
{"Sequence": "GGAAUU", "6-mer enrichment (R)": 0.982}
{"Sequence": "AGGUGG", "6-mer enrichment (R)": 1.27}
{"Sequence": "GAGGUC", "6-mer enrichment (R)": 0.954}
{"Sequence": "GUCGUU", "6-mer enrichment (R)": 1.03}
{"Sequence": "GUCACG", "6-mer enrichment (R)": 0.894}
{"Sequence": "GUGUGG", "6-mer enrichment (R)": 2.2}
{"Sequence": "AUAGAC", "6-mer enrichment (R)": 0.832}
{"Sequence": "UGUGUA", "6-mer enrichment (R)": 1.66}
{"Sequence": "AGGCUA", "6-mer enrichment (R)": 0.866}
{"Sequence": "GAGGUU", "6-mer enrichment (R)": 1.08}
{"Sequence": "CUGACC", "6-mer enrichment (R)": 0.882}
{"Sequence": "AAGAAU", "6-mer enrichment (R)": 0.992}
{"Sequence": "UUACGA", "6-mer enrichment (R)": 0.84}
{"Sequence": "ACUGAG", "6-mer enrichment (R)": 0.91}
{"data": "Study 4", "target": "PABPC1L2, full length, GST fusion (mouse, UniProt A0ABA7IW68)", "method": "RNAcompete", "form": "RNA", "matrix": "in vitro", "tested at": "20 nM", "setting": "7-mer, probes averaged, single round", "reference": "mean of 7-mers", "reading": "higher = stronger binding", "Construct (chain)": "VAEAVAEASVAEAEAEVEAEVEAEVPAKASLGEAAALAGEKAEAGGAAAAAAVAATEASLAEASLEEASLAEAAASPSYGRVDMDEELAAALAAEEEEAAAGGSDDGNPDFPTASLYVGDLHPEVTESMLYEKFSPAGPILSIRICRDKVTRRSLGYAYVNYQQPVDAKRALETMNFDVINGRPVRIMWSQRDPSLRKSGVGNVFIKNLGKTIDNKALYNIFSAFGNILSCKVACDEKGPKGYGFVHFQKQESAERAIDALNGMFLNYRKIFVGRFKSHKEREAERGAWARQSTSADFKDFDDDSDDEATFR"}
{"Sequence": "CCCGUGU", "7-mer Z-score": -0.418}
{"Sequence": "CAACAUU", "7-mer Z-score": -0.0772}
{"Sequence": "AAAACUC", "7-mer Z-score": 2.56}
{"Sequence": "GAACUGU", "7-mer Z-score": -0.195}
{"Sequence": "UCAUAAA", "7-mer Z-score": 2.53}
{"Sequence": "UGGCUGG", "7-mer Z-score": 0.133}
{"Sequence": "AACUGGA", "7-mer Z-score": 0.148}
{"Sequence": "GCCACAC", "7-mer Z-score": -0.322}
{"Sequence": "UUUACAA", "7-mer Z-score": 0.164}
{"Sequence": "CGAUGAA", "7-mer Z-score": 0.0533}
{"Sequence": "CGCGGAG", "7-mer Z-score": -0.0754}
{"Sequence": "GGGCCCG", "7-mer Z-score": -0.0138}
{"Sequence": "GAGGAAA", "7-mer Z-score": 0.785}
{"Sequence": "AAAACGU", "7-mer Z-score": 2.61}
{"Sequence": "AUAUGAU", "7-mer Z-score": 0.0134}
{"Sequence": "CUAUGCC", "7-mer Z-score": -0.389}
{"Sequence": "AGCACAU", "7-mer Z-score": -0.117}
{"Sequence": "CGACCUA", "7-mer Z-score": -0.0047}
{"Sequence": "CUCCCGG", "7-mer Z-score": -0.345}
{"Sequence": "ACCCCCU", "7-mer Z-score": -0.481}
{"Sequence": "AGGACCA", "7-mer Z-score": 0.18}
{"Sequence": "GCGUAGC", "7-mer Z-score": -0.179}
{"Sequence": "GGAACCA", "7-mer Z-score": 0.2}
{"Sequence": "UAUUAUG", "7-mer Z-score": -0.0536}
{"Sequence": "ACCCGGG", "7-mer Z-score": -0.0881}
{"data": "Study 5", "target": "Histone acetyltransferase KAT6A, winged helix 1, GST fusion (KAT6A, Homo sapiens, UniProt Q92794, residues 1-85)", "method": "protein binding microarray", "form": "double-stranded DNA, one strand shown", "matrix": "in vitro", "tested at": "not given", "setting": "8-mer, flanks averaged, mean of 2 arrays, mostly near background", "reference": "not given", "reading": "higher = stronger binding", "Residues (chain)": "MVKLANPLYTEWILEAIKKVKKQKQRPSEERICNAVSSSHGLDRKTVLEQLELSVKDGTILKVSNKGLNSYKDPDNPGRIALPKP"}
{"Sequence": "CCTGTCTA", "E-score": -0.18}
{"Sequence": "TGCCCAAA", "E-score": -0.204}
{"Sequence": "TGCTCACA", "E-score": -0.218}
{"Sequence": "AACACTTA", "E-score": -0.169}
{"Sequence": "GGCCCACA", "E-score": -0.0754}
{"Sequence": "ATATGCAC", "E-score": -0.0765}
{"Sequence": "AGTGAATG", "E-score": 0.01}
{"Sequence": "CGCCCGTC", "E-score": 0.421}
{"Sequence": "GACGTTTA", "E-score": -0.0371}
{"Sequence": "GTCGGAAA", "E-score": 0.166}
{"Sequence": "AAATGACA", "E-score": -0.209}
{"Sequence": "GGGGAGTA", "E-score": 0.00332}
{"Sequence": "ACTCCGCA", "E-score": -0.0613}
{"Sequence": "CGCTCTGA", "E-score": 0.218}
{"Sequence": "AATCCGAA", "E-score": -0.0035}
{"Sequence": "CTTGGCCA", "E-score": -0.307}
{"Sequence": "AAGCGCAA", "E-score": 0.228}
{"Sequence": "AGGAAGTA", "E-score": -0.0428}
{"Sequence": "AGACGGCA", "E-score": 0.277}
{"Sequence": "ACGTTCAA", "E-score": -0.1}
{"Sequence": "CACGATGG", "E-score": 0.0311}
{"Sequence": "ACTGTGAA", "E-score": -0.0601}
{"Sequence": "GGTATAAA", "E-score": -0.0152}
{"note": "Excerpt of the above (study 3):"}
{"Sequence": "GUCGGG", "6-mer enrichment (R)": 1.22}
{"Sequence": "ACAGUU", "6-mer enrichment (R)": 0.889}
{"Sequence": "ACCUGG", "6-mer enrichment (R)": 0.876}
{"Sequence": "UGAUCU", "6-mer enrichment (R)": 0.873}
{"Sequence": "CCUCAG", "6-mer enrichment (R)": 0.887}
{"Sequence": "GGGGAA", "6-mer enrichment (R)": 1.19}
{"Sequence": "UCCAUC", "6-mer enrichment (R)": 0.881}
